Published values of several laboratories.
A part holds a random share of what one study measured. Substitutions count along the parent as printed.
Sequence of UniProt P00519 (whole entry, unmodified, looked up): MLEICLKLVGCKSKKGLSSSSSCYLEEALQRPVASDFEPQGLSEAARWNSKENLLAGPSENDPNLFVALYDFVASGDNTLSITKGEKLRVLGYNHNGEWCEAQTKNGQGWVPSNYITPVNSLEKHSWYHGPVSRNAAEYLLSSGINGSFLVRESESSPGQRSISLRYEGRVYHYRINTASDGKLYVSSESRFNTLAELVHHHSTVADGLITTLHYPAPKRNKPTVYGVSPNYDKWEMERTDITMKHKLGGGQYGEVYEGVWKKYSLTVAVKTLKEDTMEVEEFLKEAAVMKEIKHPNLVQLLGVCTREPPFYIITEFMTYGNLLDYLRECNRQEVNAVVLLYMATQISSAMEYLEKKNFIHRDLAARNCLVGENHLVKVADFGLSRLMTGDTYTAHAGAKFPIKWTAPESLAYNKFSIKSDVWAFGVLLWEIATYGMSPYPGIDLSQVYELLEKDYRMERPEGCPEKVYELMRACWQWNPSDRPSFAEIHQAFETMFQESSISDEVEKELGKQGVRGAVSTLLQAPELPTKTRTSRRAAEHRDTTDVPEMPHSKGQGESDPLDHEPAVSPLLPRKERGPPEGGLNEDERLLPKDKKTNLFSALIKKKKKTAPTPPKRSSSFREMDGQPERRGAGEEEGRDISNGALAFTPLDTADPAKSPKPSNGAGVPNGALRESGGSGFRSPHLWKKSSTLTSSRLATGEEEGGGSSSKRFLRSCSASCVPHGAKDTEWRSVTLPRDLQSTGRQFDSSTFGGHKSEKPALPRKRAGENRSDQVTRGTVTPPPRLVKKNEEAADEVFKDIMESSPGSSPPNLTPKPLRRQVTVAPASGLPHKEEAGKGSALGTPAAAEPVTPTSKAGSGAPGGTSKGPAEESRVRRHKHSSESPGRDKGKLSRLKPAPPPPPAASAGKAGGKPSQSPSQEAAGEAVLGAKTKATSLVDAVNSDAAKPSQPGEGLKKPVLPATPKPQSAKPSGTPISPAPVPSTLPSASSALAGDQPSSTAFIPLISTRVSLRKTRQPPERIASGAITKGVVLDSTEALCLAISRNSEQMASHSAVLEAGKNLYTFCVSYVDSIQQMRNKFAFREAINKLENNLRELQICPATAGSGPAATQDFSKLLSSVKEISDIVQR
Sequence of UniProt Q8IW41 (whole entry, looked up): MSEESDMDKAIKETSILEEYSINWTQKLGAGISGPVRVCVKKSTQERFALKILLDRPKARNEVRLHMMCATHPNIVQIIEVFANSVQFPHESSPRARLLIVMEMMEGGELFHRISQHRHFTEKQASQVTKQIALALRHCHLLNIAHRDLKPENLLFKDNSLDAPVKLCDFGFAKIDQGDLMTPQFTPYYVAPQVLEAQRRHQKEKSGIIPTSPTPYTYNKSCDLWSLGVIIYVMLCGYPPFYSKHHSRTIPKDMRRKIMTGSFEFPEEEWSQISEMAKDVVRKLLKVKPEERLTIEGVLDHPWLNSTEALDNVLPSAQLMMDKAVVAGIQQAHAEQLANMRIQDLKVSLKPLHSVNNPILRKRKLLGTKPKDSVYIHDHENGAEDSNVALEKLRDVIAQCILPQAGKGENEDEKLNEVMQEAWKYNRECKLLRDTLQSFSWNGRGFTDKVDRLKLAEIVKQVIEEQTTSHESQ
Sequence of UniProt P51812 (whole entry, looked up): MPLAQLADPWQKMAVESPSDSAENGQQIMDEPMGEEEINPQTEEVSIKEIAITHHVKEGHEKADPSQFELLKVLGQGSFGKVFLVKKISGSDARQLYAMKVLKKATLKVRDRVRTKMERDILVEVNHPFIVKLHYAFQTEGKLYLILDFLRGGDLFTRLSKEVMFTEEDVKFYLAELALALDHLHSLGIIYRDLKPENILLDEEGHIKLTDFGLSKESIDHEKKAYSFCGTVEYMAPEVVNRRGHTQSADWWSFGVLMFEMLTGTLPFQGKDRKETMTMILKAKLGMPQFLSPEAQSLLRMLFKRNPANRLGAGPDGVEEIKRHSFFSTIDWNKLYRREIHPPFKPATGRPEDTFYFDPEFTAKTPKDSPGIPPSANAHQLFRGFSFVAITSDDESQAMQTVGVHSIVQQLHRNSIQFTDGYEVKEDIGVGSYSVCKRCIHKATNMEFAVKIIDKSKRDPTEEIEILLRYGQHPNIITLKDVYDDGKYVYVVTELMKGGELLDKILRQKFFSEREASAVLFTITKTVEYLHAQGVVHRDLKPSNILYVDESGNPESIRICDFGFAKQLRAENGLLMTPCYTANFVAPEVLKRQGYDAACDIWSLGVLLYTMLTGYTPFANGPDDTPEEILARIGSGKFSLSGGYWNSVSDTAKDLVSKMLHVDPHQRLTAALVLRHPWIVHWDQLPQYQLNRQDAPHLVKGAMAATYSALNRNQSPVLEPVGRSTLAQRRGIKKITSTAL
Sequence of UniProt P27037 (whole entry, looked up): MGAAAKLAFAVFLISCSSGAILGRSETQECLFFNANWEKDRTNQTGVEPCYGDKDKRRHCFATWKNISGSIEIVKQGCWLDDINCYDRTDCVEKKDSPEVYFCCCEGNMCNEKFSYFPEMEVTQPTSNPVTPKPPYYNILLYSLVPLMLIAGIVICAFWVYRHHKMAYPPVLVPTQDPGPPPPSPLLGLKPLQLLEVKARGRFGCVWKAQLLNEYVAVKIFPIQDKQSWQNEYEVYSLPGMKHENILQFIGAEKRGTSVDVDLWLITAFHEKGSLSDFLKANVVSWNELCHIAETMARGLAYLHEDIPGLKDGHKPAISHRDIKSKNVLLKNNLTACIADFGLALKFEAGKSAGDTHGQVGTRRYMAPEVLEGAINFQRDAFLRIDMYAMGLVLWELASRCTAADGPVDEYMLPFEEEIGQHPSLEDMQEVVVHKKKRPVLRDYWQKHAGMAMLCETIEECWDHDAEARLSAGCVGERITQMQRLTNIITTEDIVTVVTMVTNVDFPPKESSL
Sequence of UniProt Q16513 (whole entry, looked up): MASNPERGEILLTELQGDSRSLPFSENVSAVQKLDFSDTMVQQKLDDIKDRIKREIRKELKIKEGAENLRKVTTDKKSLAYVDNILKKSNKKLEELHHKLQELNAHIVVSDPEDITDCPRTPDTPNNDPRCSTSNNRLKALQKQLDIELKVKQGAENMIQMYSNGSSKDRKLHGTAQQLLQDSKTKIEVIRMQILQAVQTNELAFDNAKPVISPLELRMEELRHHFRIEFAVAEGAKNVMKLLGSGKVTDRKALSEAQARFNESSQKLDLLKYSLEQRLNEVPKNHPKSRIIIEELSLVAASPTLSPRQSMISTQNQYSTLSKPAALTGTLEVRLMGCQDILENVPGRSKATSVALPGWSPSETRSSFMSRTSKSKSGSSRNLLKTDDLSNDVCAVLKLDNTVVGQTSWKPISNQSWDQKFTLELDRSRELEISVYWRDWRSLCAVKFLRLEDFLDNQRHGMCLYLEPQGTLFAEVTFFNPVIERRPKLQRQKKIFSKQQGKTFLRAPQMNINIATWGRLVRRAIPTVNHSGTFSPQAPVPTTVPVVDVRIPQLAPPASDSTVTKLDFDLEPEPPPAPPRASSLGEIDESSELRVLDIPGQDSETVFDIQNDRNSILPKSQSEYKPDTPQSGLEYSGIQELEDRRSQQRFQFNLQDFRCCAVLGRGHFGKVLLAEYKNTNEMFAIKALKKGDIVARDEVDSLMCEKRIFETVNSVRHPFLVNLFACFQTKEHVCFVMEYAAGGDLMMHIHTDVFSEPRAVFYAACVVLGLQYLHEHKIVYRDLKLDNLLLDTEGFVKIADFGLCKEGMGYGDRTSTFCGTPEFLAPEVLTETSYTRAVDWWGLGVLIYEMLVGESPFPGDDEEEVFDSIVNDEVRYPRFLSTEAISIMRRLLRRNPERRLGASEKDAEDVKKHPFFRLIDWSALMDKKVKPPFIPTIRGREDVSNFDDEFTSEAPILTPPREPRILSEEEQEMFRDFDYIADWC
Sequence of UniProt Q13153 (whole entry, looked up): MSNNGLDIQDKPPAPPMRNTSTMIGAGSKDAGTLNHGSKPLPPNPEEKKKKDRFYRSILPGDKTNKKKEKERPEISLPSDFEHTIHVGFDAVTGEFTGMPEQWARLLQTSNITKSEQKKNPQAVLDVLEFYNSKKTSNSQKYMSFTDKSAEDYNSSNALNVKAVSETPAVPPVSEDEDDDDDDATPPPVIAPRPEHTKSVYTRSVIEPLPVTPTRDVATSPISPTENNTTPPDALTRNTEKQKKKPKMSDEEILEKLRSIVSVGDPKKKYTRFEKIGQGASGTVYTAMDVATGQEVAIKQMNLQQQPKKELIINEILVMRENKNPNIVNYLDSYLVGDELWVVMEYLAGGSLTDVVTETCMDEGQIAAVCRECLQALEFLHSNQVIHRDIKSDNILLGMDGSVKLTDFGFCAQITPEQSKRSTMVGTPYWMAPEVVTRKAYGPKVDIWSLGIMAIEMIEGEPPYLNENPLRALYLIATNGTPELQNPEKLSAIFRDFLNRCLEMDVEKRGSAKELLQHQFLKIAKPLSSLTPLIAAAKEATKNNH
Sequence of UniProt O43318 (whole entry, looked up): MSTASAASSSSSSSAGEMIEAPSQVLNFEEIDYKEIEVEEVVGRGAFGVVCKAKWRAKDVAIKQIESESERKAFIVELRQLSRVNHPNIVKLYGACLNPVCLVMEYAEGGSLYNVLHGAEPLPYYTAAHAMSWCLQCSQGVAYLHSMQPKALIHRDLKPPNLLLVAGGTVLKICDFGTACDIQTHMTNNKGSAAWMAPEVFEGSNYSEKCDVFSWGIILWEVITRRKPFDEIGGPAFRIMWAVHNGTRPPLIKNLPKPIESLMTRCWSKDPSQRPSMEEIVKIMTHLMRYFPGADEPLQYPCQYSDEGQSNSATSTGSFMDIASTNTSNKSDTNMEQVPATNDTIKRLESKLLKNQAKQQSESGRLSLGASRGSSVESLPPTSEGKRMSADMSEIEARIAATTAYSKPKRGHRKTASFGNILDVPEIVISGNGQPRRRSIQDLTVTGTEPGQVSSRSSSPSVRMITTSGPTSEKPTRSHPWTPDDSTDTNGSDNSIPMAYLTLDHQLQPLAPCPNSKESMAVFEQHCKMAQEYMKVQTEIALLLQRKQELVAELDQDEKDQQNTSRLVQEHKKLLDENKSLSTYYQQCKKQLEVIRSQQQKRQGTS

Set 1
SMILES: CCC(=N\O)/C(C)=C/c1ccc(F)cc1
Tested at: 1 µM
target | read-out | technique | setting | baseline | remaining binding [%]
Leukocyte tyrosine kinase receptor (LTK, Homo sapiens, UniProt P29376) | cell-free assay | competition with immobilised ligand | – | – | 87
Epidermal growth factor receptor (EGFR, Homo sapiens, UniProt P00533, A750P/del747-749) | cell-free assay | competition with immobilised ligand | – | – | 69
Mitogen-activated protein kinase 3 (MAPK3, Homo sapiens, UniProt P27361) | cell-free assay | competition with immobilised ligand | – | – | 69
Mitogen-activated protein kinase kinase kinase 7 (MAP3K7, Homo sapiens, UniProt O43318) | cell-free assay | competition with immobilised ligand | – | – | 81
Ribosomal protein S6 kinase alpha-3, C-terminal kinase domain (RPS6KA3, Homo sapiens, UniProt P51812) | cell-free assay | competition with immobilised ligand | – | – | 100
Tyrosine-protein kinase ABL2 (ABL2, Homo sapiens, UniProt P42684) | cell-free assay | competition with immobilised ligand | – | – | 82
Casein kinase I isoform epsilon (CSNK1E, Homo sapiens, UniProt P49674) | cell-free assay | competition with immobilised ligand | – | – | 99
Mitotic checkpoint serine/threonine-protein kinase BUB1 (BUB1, Homo sapiens, UniProt O43683) | cell-free assay | competition with immobilised ligand | – | – | 88
Tyrosine-protein kinase ABL1 (ABL1, Homo sapiens, UniProt P00519, F317I) | – | KINOMEscan | F317I mutant, phosphorylated | control | 77
Activin receptor type-2A (ACVR2A, Homo sapiens, UniProt P27037) | cell-free assay | competition with immobilised ligand | – | – | 100
Ephrin type-B receptor 2 (EPHB2, Homo sapiens, UniProt P29323) | cell-free assay | competition with immobilised ligand | – | – | 76
Serine/threonine-protein kinase 17B (STK17B, Homo sapiens, UniProt O94768) | cell-free assay | competition with immobilised ligand | – | – | 74
STE20/SPS1-related proline-alanine-rich protein kinase (STK39, Homo sapiens, UniProt Q9UEW8) | cell-free assay | competition with immobilised ligand | – | – | 94
Serine/threonine-protein kinase N2 (PKN2, Homo sapiens, UniProt Q16513) | cell-free assay | competition with immobilised ligand | – | – | 80
Cyclin-dependent kinase 15 (CDK15, Homo sapiens, UniProt Q96Q40) | cell-free assay | competition with immobilised ligand | – | – | 80
Tyrosine-protein kinase ABL1, phosphorylated (ABL1, Homo sapiens, UniProt P00519) | cell-free assay | competition with immobilised ligand | – | – | 66
Serine/threonine-protein kinase Nek6 (NEK6, Homo sapiens, UniProt Q9HC98) | cell-free assay | competition with immobilised ligand | – | – | 87
Casein kinase I isoform gamma-2 (CSNK1G2, Homo sapiens, UniProt P78368) | cell-free assay | competition with immobilised ligand | – | – | 87
ALK tyrosine kinase receptor (ALK, Homo sapiens, UniProt Q9UM73) | cell-free assay | competition with immobilised ligand | – | – | 87
MAP kinase-activated protein kinase 5 (MAPKAPK5, Homo sapiens, UniProt Q8IW41) | cell-free assay | competition with immobilised ligand | – | – | 91
Serine/threonine-protein kinase 35 (STK35, Homo sapiens, UniProt Q8TDR2) | cell-free assay | competition with immobilised ligand | – | – | 100
Mitogen-activated protein kinase kinase kinase kinase 3 (MAP4K3, Homo sapiens, UniProt Q8IVH8) | cell-free assay | competition with immobilised ligand | – | – | 100
Serine/threonine-protein kinase SIK1 (SIK1, Homo sapiens, UniProt P57059) | – | competition binding | – | – | 80
Serine/threonine-protein kinase PAK 1 (PAK1, Homo sapiens, UniProt Q13153) | cell-free assay | competition with immobilised ligand | – | – | 88
Bone morphogenetic protein receptor type-1A (BMPR1A, Homo sapiens, UniProt P36894) | binding | competition with immobilised ligand | – | – | 86

Set 2
Cell line: mouse MPNST tumor cells
Technique: high-content nuclear imaging
Item: cell number
Tested at: 10 µM
Time: 12 h
Setting: mean of 2 replicates
Baseline: plate mean
Reading: higher = more cells
SMILES | nuclei count [z-score]
N[C@@H](Cc1ccc(O)c(O)c1)C(=O)O | 0.96
Cc1cc(C)nc(NS(=O)(=O)c2ccc(NC(=S)NC(=O)COc3ccc(Br)cc3Cl)cc2)n1 | 0.237
Cc1cnc(C(=O)NCCc2ccc(S(=O)(=O)NC(=O)NC3CCCCC3)cc2)cn1 | 2.32

Set 3
Cell line: A-375
Tested at: 100 µM
Time: 36 h
SMILES | viability
O=C(/C=C/c1ccc(O)c2c1[C@H](C(=O)O[C@H](Cc1ccc(O)c(O)c1)C(=O)O)[C@@H](c1ccc(O)c(O)c1)O2)O[C@H](Cc1ccc(O)c(O)c1)C(=O)O | 116%
CCCc1cc(=O)[nH]c(=S)[nH]1 | 108%
O=C(O)C[C@H](O)C[C@H](O)/C=C/c1c(C2CC2)nc2ccccc2c1-c1ccc(F)cc1 | 44.8%

Set 4
Cell line: Huh-7
Tested at: 10 µM
Time: 24 h
SMILES | viability
CCN[C@@H]1C[C@H](N)[C@@H](O[C@H]2OC(CN)=CC[C@H]2N)[C@H](O)[C@H]1O[C@H]1OC[C@](C)(O)[C@H](NC)[C@H]1O | 100%
C[C@H]1C[C@@H]2[C@H]([C@@H](O)C[C@@]3(C)[C@H]2CC[C@]3(O)C(=O)COC(=O)CCC(=O)O)[C@@]2(C)C=CC(=O)C=C12 | 80.6%
CC(=O)OCC(=O)[C@@]1(O)[C@@H](C)C[C@H]2[C@@H]3CCC4=CC(=O)C=C[C@]4(C)[C@@]3(F)[C@@H](O)C[C@@]21C | 102%
NC(=O)NO | 98.9%

Set 5
Target: OGT, full length, His-tagged (human)
Technique: phage display, sequencing
Sample: in vitro
Tested at: 1 µg OGT
Setting: single substitutions, 15-mer displayed peptide, unchanged parent 16.7
Baseline: input library
Reading: higher = stronger binding
Parent: peptide; NSEYMPQYQIIFAHQ
Change | fold enrichment [fold]
NSEYMPQYAIIFAHQ [Q9A] | 5.2
NSEYIPQYQIIFAHQ [M5I] | 6.72
NSEYMPQYQIIKAHQ [F12K] | 1.01
NSEYMPQYQIIFNHQ [A13N] | 32.9
NSEYMPQYQIIFGHQ [A13G] | 13.1
NFEYMPQYQIIFAHQ [S2F] | 10.1
NSEYMPQYQIWFAHQ [I11W] | 13.3
ESEYMPQYQIIFAHQ [N1E] | 18.8

Set 6
Target: RING finger protein unkempt homolog, zinc fingers 1-6, GST-SBP tag (UNK, Homo sapiens, UniProt Q9C0B0, residues 30-357)
Technique: RNA Bind-n-Seq
Form: RNA
Sample: in vitro
Tested at: not given
Setting: RNA with constant flanks, human and mouse sites, ends assumed
Baseline: input RNA pool
Reading: higher = stronger binding
All sequences stand within: GGGAGUUCUACAGUCCGACGAUC … CAACAGAGGAUUGAGCAUCA
Target sequence (chain): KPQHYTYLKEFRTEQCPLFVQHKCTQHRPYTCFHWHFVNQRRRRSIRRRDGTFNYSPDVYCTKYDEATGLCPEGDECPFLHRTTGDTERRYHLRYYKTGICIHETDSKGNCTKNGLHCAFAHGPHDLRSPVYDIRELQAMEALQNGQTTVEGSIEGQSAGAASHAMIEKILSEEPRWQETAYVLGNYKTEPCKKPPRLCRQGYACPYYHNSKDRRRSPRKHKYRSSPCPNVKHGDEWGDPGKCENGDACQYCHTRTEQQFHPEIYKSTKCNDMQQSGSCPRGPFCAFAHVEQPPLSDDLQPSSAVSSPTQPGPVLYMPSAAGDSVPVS
Strand | bound/input enrichment
CCAAUUGACAACGGUUCAAAAAUCACCAACUACCUUUUAGAGUGGGAUGAGGGAAAAAGAAAUAGUGGUUUCAGACAGUGCUUCUUCGGGAGCCAGAAGCACUGCAAGUUGACAAAGCUU | 0.657 ratio
ACAGUAGGAAAGGCCAAGGGCAAAUUGUGGCUCUUUGGAAAGAAGCCAAAGGGCCCAGCACUAGAAGAUUUCAGUCAUCUGCCACCAGAACAGAGACGUAAAAAACUACAGCAGCGCAUU | 0.673 ratio
AUAGCUUUCCAAAAGAAGCUCUUUCAGACCCUGAGGAGACACCCUUCCUAUCCCAAAAUAAUAGAAGAAUUUGUUAGUGGCCUGGAGUCUUACAUUGAGGAUGAAGACAGUUUCAGGAAC | 4.43 ratio
CUGGCAAAGCAUCCAAAGAGCCUGGCUUCUGUCCUUUCUGGGGCAUGUGAUGGAGAGGUUAAAAUUUGGAAUCUGACUAAACGAAAAUGUAUCCGAACAAUACAAGCACAUGAAGGUUUU | 0.225 ratio
CUGUGGUGUGUGAAAGAGAGAAGAAAAACUGGAAAUCUUAUUCCGUGUGUGUUUGGGAGUUGCUUGGGGUUGGGGGUCGUGGGGACAGGGGACAGCUCUGGGAGCAGAGGUGGCCCUCGG | 0.589 ratio
UCACAAGAUCUUUCAGCAGCACCCGCUGAACAGUAUCUUCAGGAGAAGCUGCCAGAUGAAGUAGUUUUAAAAAUAUUUUCUUAUUUGCUGGAACAAGACCUUUGUAGAGCUGCUUGCGUG | 4.86 ratio
CUGUGCAUUUCUGAAAAACAGGAGAAUGAUGUCAUUAAUGCUAUCCUUAAGCAAUACACGGAAGAAAAAGAGUUUGUAGAGAAGCACUUUAAUGACUUAAACAUGAAAGCCUCAGAACAA | 0.126 ratio
AGUCGUACUGGCUUGCCCCCGGUAACUGAUGAAAACCAUGUCAUUGUAAAAACGGACAGUCAGCUCGAAGACCUGGGCUACUGUGUGUUCAAUAAGUACACAGUCCCAUUGCCAUCACCU | 0.046 ratio

Single results of other studies
SMILES | read-out | technique | sample | tested at | setting | measurement | result
O=C(NNC(=O)c1c(O)c2ccccc2[nH]c1=O)c1ccccc1[N+](=O)[O-] | AlphaScreen signal | AlphaScreen counter screen | His6 peptide without bromodomain | 50 µM | assay interference check | inhibition | 12.2%

Repeated from above (single results of other studies):
SMILES | read-out | technique | sample | tested at | setting | measurement | result
O=C(NNC(=O)c1c(O)c2ccccc2[nH]c1=O)c1ccccc1[N+](=O)[O-] | AlphaScreen signal | AlphaScreen counter screen | His6 peptide without bromodomain | 50 µM | assay interference check | inhibition | 12.2%
